Published values from different studies.
± marks the error that the study gave.

SMILES = CC(C)CCC1=C(O)C(=O)c2ccccc2C1=O; cell line = Calu-3; test = cell growth or viability; conditions = 72 h; CC50 = 75 µM
SMILES = CC[C@H](C)[C@H](NC(=O)[C@H](CCCCN)NC(=O)[C@H](CC(N)=O)NC(=O)[C@H](Cc1ccccc1)NC(=O)[C@H](Cc1ccccc1)NC(=O)[C@H](CCCCN)NC(=O)[C@H](CCCNC(=N)N)NC(=O)[C@H](CC(C)C)NC(=O)[C@H](CCCNC(=N)N)NC(=O)[C@H](CCCCN)NC(=O)[C@H](CCCNC(=N)N)NC(=O)[C@H](CC(C)C)NC(=O)CNC(C)=O)C(=O)N[C@@H](CCCCN)C(=O)N[C@@H](Cc1ccccc1)C(N)=O; cell line = T cells; test = CCK-8; conditions = 24 h; CC50 = 352 µM
SMILES = O=C1Nc2ccc(F)cc2C1=Cc1c(Cl)[nH]c2c1ccc1ccccc12; cell line = NCI-60 cell panel; conditions = 48 h, panel mean; CC50 = 56.2 µM
SMILES = COc1ccc2cc1Oc1cc3c(cc1OC)CCN(C)C3Cc1ccc(cc1)Oc1c(O)c(OC)cc3c1C(C2)N(C)CC3 (stereo not drawn); cell line = Huh-7; test = cell growth or viability, MTT; conditions = 24 h; CC50 = 42.7 µM
SMILES = Cc1ccc(NC(=O)CN2CCCC3=CC4CC(CN5CCCCC45)C32)c(Cl)c1 (stereo not drawn); cell line = Huh-7; test = cytotoxicity; CC50 = > 267 µM
SMILES = COc1ccc2nc3cc(Cl)ccc3c(N3CCOCC3)c2c1; cell line = U2OS-ACE2-GFP; conditions = 20 (unit not given); CC50 = > 50 µM
SMILES = CC(C)OC(=O)C(C)NP(=O)(OCC1OC(n2ccc(=O)[nH]c2=O)C(F)(Cl)C1O)Oc1ccccc1 (stereo not drawn); cell line = Huh-7; test = MTS; conditions = 4 days; CC50 = > 100 µM
SMILES = CC[C@H](C)[C@H](NC(=O)[C@H](CCCN)NC(=O)[C@H](CC(N)=O)NC(=O)[C@H](CC(C)C)NC(=O)[C@H](Cc1ccccc1)NC(=O)[C@H](CCCN)NC(=O)[C@H](CCCCNC(=N)N)NC(=O)[C@H](CC(C)C)NC(=O)[C@H](CC(C)C)NC(=O)[C@H](CCCN)NC(=O)[C@H](CCCCNC(=N)N)NC(=O)[C@H](CC(C)C)NC(=O)CNC(C)=O)C(=O)N[C@@H](CCCN)C(=O)N[C@@H](CCCCNC(=N)N)C(N)=O; cell line = T cells; test = CCK-8; conditions = 24 h; CC50 = 7.24 µM
SMILES = O=S(=O)(c1ccc(Cl)cc1)N1CCCC2=CC3CC(CN4CCCCC34)C21 (stereo not drawn); cell line = Huh-7; test = cytotoxicity; CC50 = > 267 µM
SMILES = CCOP(=O)(O)Oc1c2c(c(OP(=O)(O)OCC)c3c1C1CC3c3cc4c(cc31)C1CC4c3ccccc31)C1CC2c2cc3c(cc21)C1CC3c2ccccc21; cell line = Caco-2; test = CellTiter-Glo; conditions = 2 days; CC50 = > 300 µM
SMILES = CC(C)OC(=O)[C@H](C)N[P@](=O)(OC[C@H]1O[C@@H](n2ccc(=O)[nH]c2=O)[C@@](F)(Br)[C@@H]1O)Oc1ccccc1; cell line = Huh-7; test = MTS; conditions = 4 days; CC50 = 72.4 µM
SMILES = Oc1cccc(O)c1-c1c2nc(c(-c3c(O)cccc3O)c3ccc([nH]3)c(-c3c(O)cccc3O)c3nc(c(-c4c(O)cccc4O)c4ccc1[nH]4)C=C3)C=C2; cell line = HeLa S3; test = cell proliferation, 3H-thymidine uptake; conditions = 2 days + 16 h; CC50 = 20 µg/mL
SMILES = O=C(CN1CCCC2=CC3CC(CN4CCCCC34)C21)Nc1cc(Br)ccc1Br (stereo not drawn); cell line = Huh-7; test = cytotoxicity; CC50 = 164 µM
SMILES = COc1ccc2nc3ncccc3c(Nc3ccc(O)c(CN4CCCC4)c3)c2c1; cell line = U2OS-ACE2-GFP; conditions = 20 (unit not given); CC50 = 30.8 µM
SMILES = CCC(C)OP(=O)(O)Oc1c2c(c(OP(=O)(O)OC(C)CC)c3c1C1CC3c3cc4c(cc31)C1CC4c3ccccc31)C1CC2c2cc3c(cc21)C1CC3c2ccccc21 (stereo not drawn); cell line = Caco-2; test = CellTiter-Glo; conditions = 2 days; CC50 = 274 µM
SMILES = C=C1C(=O)OC2C1CCC(Cn1cc(-c3cc(C(F)(F)F)cc(C(F)(F)F)c3)nn1)=C1CCC(C)(O)C12 (stereo not drawn); cell line = MV4-11; test = cell viability, alamarBlue; conditions = 24 h; CC50 = 1.2 ± 0.5 µM
SMILES = O=C(CN1CCCC2=CC3CC(CN4CCCCC34)C21)Nc1ccc(Br)c(C(F)(F)F)c1 (stereo not drawn); cell line = Huh-7; test = cytotoxicity; CC50 = 38.3 µM
SMILES = COP(=O)(O)Oc1c2c(c(OP(=O)(O)OC)c3c1C1CC3c3cc4c(cc31)C1CC4c3ccccc31)C1CC2c2cc3c(cc21)C1CC3c2ccccc21; cell line = Caco-2; test = CellTiter-Glo; conditions = 2 days; CC50 = 214 µM
SMILES = CN(CC(=O)N1CCCC2=CC3CC(CN4CCCCC34)C21)c1ccc(Cl)cc1 (stereo not drawn); cell line = Huh-7; test = cytotoxicity; CC50 = 192 µM
SMILES = COc1ccccc1CNC(=O)CSc1c[nH]c2ccccc12; cell line = A549; test = cell viability; CC50 = 76.2 µM
SMILES = COc1ccc2nc3cc(Cl)ccc3c(Nc3ccc(O)c(CN4CCCC4)c3)c2n1; cell line = U2OS-ACE2-GFP; conditions = 20 (unit not given); CC50 = 3.62 µM
SMILES = CC[C@H](C)[C@H](NC(=O)CNC(=O)[C@H](CO)NC(=O)[C@H](CC(C)C)NC(=O)[C@@H](N)Cc1ccccc1)C(=O)N[C@H](C(=O)NCC(=O)N[C@@H](CCSC)C(=O)N[C@@H](CC(C)C)C(=O)NCC(=O)N[C@@H](CCCCN)C(=O)N[C@@H](CC(C)C)C(=O)N[C@@H](Cc1ccccc1)C(N)=O)C(C)C; cell line = Swiss mouse peritoneal macrophages; test = MTT; CC50 = 1000 ± 0.02 µM
SMILES = Clc1ccc(CN2CCCC3=CC4CC(CN5CCCCC45)C32)cc1 (stereo not drawn); cell line = Huh-7; test = cytotoxicity; CC50 = > 267 µM
SMILES = COc1ccc2nc3ccc(Cl)cc3c(Nc3ccc(O)c(CN4CCCC4)c3)c2c1; cell line = U2OS-ACE2-GFP; conditions = 20 (unit not given); CC50 = 3.2 µM
SMILES = C#CCCOP(=O)(O)Oc1c2c(c(OP(=O)(O)OCCC#C)c3c1C1CC3c3cc4c(cc31)C1CC4c3ccccc31)C1CC2c2cc3c(cc21)C1CC3c2ccccc21; cell line = Caco-2; test = CellTiter-Glo; conditions = 2 days; CC50 = 177 µM
SMILES = CONC(=O)[C@H]1[C@@H](O)[C@@]2(O)c3c(OC)cc(OC)cc3O[C@@]2(c2ccc(OC)cc2)[C@@H]1c1ccccc1; cell line = A549; test = cytotoxicity; conditions = 72 (unit not given); CC50 = 0.0193 µM
SMILES = CC[C@H](C)[C@@H]1NC(=O)[C@H](CCCCN)NC(=O)[C@H](CCCCN)NC(=O)[C@H](Cc2ccc(O)cc2)NC(=O)[C@H](CC(C)C)NC(=O)[C@@H]2CCCN2C(=O)[C@H](C)NC(=O)CNC(=O)CNC(=O)[C@H](CO)NC(=O)CNC(=O)CNC(=O)[C@H](CO)NC(=O)[C@H]([C@@H](C)O)NC(=O)[C@H](CC(C)C)NC(=O)[C@H](CC(C)C)NC(=O)[C@H](C)NC(=O)[C@H](Cc2c[nH]c3ccccc23)NC(=O)[C@H](Cc2ccc(O)cc2)NC(=O)[C@H](Cc2c[nH]cn2)NC(=O)[C@H](CCC(=O)O)NC(=O)[C@H](Cc2ccccc2)NC(=O)[C@H]([C@@H](C)O)NC(=O)[C@H](CC(C)C)NC(=O)[C@@H]2CCCN2C(=O)CNC(=O)CNC(=O)CSC[C@@H](C(N)=O)NC(=O)[C@H](CC(C)C)NC(=O)[C@H](CCCCN)NC(=O)[C@H](CCCCN)NC(=O)[C@H]([C@@H](C)CC)NC1=O; cell line = K562; test = resazurin; conditions = 24 h; CC50 = > 32 µM
SMILES = O=P(O)(OCCc1ccccc1)Oc1c2c(c(OP(=O)(O)OCCc3ccccc3)c3c1C1CC3c3cc4c(cc31)C1CC4c3ccccc31)C1CC2c2cc3c(cc21)C1CC3c2ccccc21; cell line = Caco-2; test = CellTiter-Glo; conditions = 2 days; CC50 = 118 µM
SMILES = Oc1c(CN2CCCC2)cc(Nc2c3cc(Cl)ccc3nc3ccc(Cl)cc23)cc1CN1CCCC1; cell line = U2OS-ACE2-GFP; conditions = 20 (unit not given); CC50 = 5.46 µM
SMILES = CC[C@H](C)[C@H](NC(=O)[C@H](CCCN)NC(=O)[C@H](CC(N)=O)NC(=O)[C@H](CC(C)C)NC(=O)[C@H](Cc1ccccc1)NC(=O)[C@H](CCCN)NC(=O)[C@H](CCCNC(=N)N)NC(=O)[C@H](CC(C)C)NC(=O)[C@H](CC(C)C)NC(=O)[C@H](CCCN)NC(=O)[C@H](CCCNC(=N)N)NC(=O)[C@H](CC(C)C)NC(=O)CNC(C)=O)C(=O)N[C@@H](CCCN)C(=O)N[C@@H](CCCNC(=N)N)C(N)=O; cell line = T cells; test = CCK-8; conditions = 24 h; CC50 = 17.8 µM
SMILES = O=c1nc(NO)ccn1[C@@H]1O[C@H](CO)[C@@H](O)[C@H]1O; cell line = Huh-7; test = MTS; conditions = 4 days; CC50 = 80.3 µM
SMILES = CN(C)Cc1cc(Nc2c3ccc(Cl)cc3nc3ccc(Cl)cc23)cc(CN(C)C)c1O; cell line = U2OS-ACE2-GFP; conditions = 20 (unit not given); CC50 = > 50 µM
SMILES = O=C(CCN(CCC(=O)N[C@@H](Cc1c[nH]c2ccccc12)C(=O)O)C(=O)CCN(CCC(=O)N(CCC(=O)N[C@@H](Cc1c[nH]c2ccccc12)C(=O)O)CCC(=O)N[C@@H](Cc1c[nH]c2ccccc12)C(=O)O)C(=O)c1cc(C(=O)N(CCC(=O)N(CCC(=O)N[C@@H](Cc2c[nH]c3ccccc23)C(=O)O)CCC(=O)N[C@@H](Cc2c[nH]c3ccccc23)C(=O)O)CCC(=O)N(CCC(=O)N[C@@H](Cc2c[nH]c3ccccc23)C(=O)O)CCC(=O)N[C@@H](Cc2c[nH]c3ccccc23)C(=O)O)cc(C(=O)N(CCC(=O)N(CCC(=O)N[C@@H](Cc2c[nH]c3ccccc23)C(=O)O)CCC(=O)N[C@@H](Cc2c[nH]c3ccccc23)C(=O)O)CCC(=O)N(CCC(=O)N[C@@H](Cc2c[nH]c3ccccc23)C(=O)O)CCC(=O)N[C@@H](Cc2c[nH]c3ccccc23)C(=O)O)c1)N[C@@H](Cc1c[nH]c2ccccc12)C(=O)O; cell line = MT4; CC50 = > 100 µM
